Experimental data gathered from unrelated publications.
Protocols differ between the studies behind these lines.

SMILES | target or system | assay | system | conditions | scale | quantity | value
CC(C)(C)[C@H](NC(=O)C(F)(F)F)C(=O)N1C[C@H]2[C@@H]([C@H]1C(=O)N[C@H](C#N)C[C@@H]1CCNC1=O)C2(C)C | SARS-CoV-2 | viral replication, infectious virus | Vero E6 | 1.25 µM | – | inhibition | 25.8%
CC(CN1c2ccccc2Sc2ccccc21)N(C)C (centres unmarked) | SARS-CoV-2 | viral replication, high-content imaging screen | – | cell-based | – | EC50 | > 100 µM
CC[C@H](C)[C@H](NC(=O)[C@H](CC(C)C)NC(=O)[C@H](Cc1c[nH]c2ccccc12)NC(=O)[C@H](CCC(N)=O)NC(=O)[C@@H](NC(=O)[C@H](Cc1ccccc1)NC(=O)[C@H](C)NC(=O)[C@H](CCCCNC(=O)COCCOCCNC(=O)COCCOCCNC(=O)CC[C@H](NC(=O)CCCCCCCCCCCCCCCCCCC(=O)O)C(=O)O)NC(=O)[C@H](CCC(N)=O)NC(=O)[C@H](C)NC(=O)[C@@H](NC(=O)[C@H](CCCCN)NC(=O)[C@H](CC(=O)O)NC(=O)[C@H](CC(C)C)NC(=O)C(C)(C)NC(=O)[C@@H](NC(=O)[C@H](CO)NC(=O)[C@H](Cc1ccc(O)cc1)NC(=O)[C@H](CC(=O)O)NC(=O)[C@H](CO)NC(=O)[C@@H](NC(=O)[C@H](Cc1ccccc1)NC(=O)[C@@H](NC(=O)CNC(=O)[C@H](CCC(=O)O)NC(=O)C(C)(C)NC(=O)[C@@H](N)Cc1ccc(O)cc1)[C@@H](C)O)[C@@H](C)O)[C@@H](C)CC)[C@@H](C)CC)C(C)C)C(=O)N[C@@H](C)C(=O)NCC(=O)NCC(=O)N1CCC[C@H]1C(=O)N[C@@H](CO)C(=O)N[C@@H](CO)C(=O)NCC(=O)N[C@@H](C)C(=O)N1CCC[C@H]1C(=O)N1CCC[C@H]1C(=O)N1CCC[C@H]1C(=O)N[C@@H](CO)C(N)=O | – | – | healthy subjects, single ascending dose | 1.0 mg, day 29 | baseline: baseline | pulse rate change | 9.61 bpm
CC(C)=CCc1c(O)ccc(C(=O)/C=C/c2ccc(O)cc2)c1O | SARS-CoV-2 | cytopathic effect | Vero E6 | 1.562 µM, replicate run | – | mean inhibition | 0%
Nc1ncnc2c([C@@H]3N[C@H](CO)[C@@H](O)[C@H]3O)c[nH]c12 | Zaire ebolavirus | antibody staining | HeLa, Kikwit | 6.3 µM | – | antigen-positive cells | 42.3%
Clc1ccccc1C1(c2ccnc(-c3ccccc3)n2)CCNCC1 | SARS-CoV-2 | cytopathic effect | USA_WA1/2020 | round 1, 5-point | – | efficacy | 109%
COc1ccc(C[C@@H]2c3cc(Oc4cc(C[C@@H]5c6cc(O)c(OC)cc6CCN5C)ccc4O)c(OC)cc3CCN2C)cc1 | SARS-CoV-2 | viral cytopathic effect | Vero E6 | 3.125 µM | – | mean inhibition | 0%
CCN(CC)CCNC(=O)c1[nH]c2ccccc2c1Sc1ccc(Cl)cc1 | SARS-CoV-2 | cytopathic effect | USA_WA1/2020 | round 2, 5-point | – | efficacy | 115%
CC[C@@H]([C@H](C)O)n1ncn(-c2ccc(N3CCN(c4ccc(OC[C@@H]5CO[C@@](Cn6cncn6)(c6ccc(F)cc6F)C5)cc4)CC3)cc2)c1=O | SARS-CoV-2 | viral replication, GFP plate reader screen | – | cell-based | – | EC50 | > 100 µM
CC1CCN(CCCNC(=O)c2cc(Sc3ccc(F)cc3)nc3ccccc23)CC1 | SARS-CoV-2 | cytopathic effect | USA_WA1/2020 | retest 8-point | – | efficacy | 65.9%
COC(=O)[C@H]1[C@H]2C[C@@H]3c4[nH]c5cc(OC)ccc5c4CCN3C[C@H]2C[C@@H](OC(=O)/C=C/c2cc(OC)c(OC)c(OC)c2)[C@@H]1OC | SARS-CoV-2 | viral replication, GFP plate reader screen | – | cell-based | – | EC50 | > 50.1 µM
O=C(/C=C/c1ccc(O)c(O)c1/C=C/c1ccc(O)c(O)c1)O[C@H](Cc1ccc(O)c(O)c1)C(=O)O | SARS-CoV-2 | cytopathic effect | Vero E6 | 50 µM, replicate run | – | mean inhibition | 16.7%
CN1CCC(OC(=O)C(Oc2ccc(Cl)cc2)Oc2ccc(Cl)cc2)CC1 | SARS-CoV-2 | viral replication, high-content imaging screen | – | cell-based | – | EC50 | > 100 µM
COc1ccccc1-c1cccc(CN2CCCC(C(=O)NCCc3ccc(F)cc3)C2)c1 (centres unmarked) | SARS-CoV-2 | cytopathic effect | USA_WA1/2020 | round 1, 5-point | – | efficacy | 79.9%

Repeated from above:
SMILES | target or system | assay | system | conditions | scale | quantity | value
Nc1ncnc2c([C@@H]3N[C@H](CO)[C@@H](O)[C@H]3O)c[nH]c12 | Zaire ebolavirus | antibody staining | HeLa, Kikwit | 6.3 µM | – | antigen-positive cells | 42.3%
